Assay results collected from several papers.
A part holds a random share of what one study measured. Changes are numbered by the printed parent chain.

Study 1 — technique: protein-binding microarray; form: double-stranded DNA, one strand shown; medium: in vitro; tested at: 2540 nM top; setting: 60-bp whole probe; added: salmon DNA 0.4 mg/ml; relative to: random background probes; direction: higher = stronger binding; shared flanks, not repeated: GCCTAGCAC … GTCTTGATTCGCTTGACGCTGCTG
Target: Interferon regulatory factor 3, full length, phosphomimetic (IRF3, Homo sapiens, UniProt Q14653, residues 1-427, S386D/S396D/S398D/S402D/T404D/S405D)
Chain of UniProt Q14653 (whole entry, unmodified, looked up): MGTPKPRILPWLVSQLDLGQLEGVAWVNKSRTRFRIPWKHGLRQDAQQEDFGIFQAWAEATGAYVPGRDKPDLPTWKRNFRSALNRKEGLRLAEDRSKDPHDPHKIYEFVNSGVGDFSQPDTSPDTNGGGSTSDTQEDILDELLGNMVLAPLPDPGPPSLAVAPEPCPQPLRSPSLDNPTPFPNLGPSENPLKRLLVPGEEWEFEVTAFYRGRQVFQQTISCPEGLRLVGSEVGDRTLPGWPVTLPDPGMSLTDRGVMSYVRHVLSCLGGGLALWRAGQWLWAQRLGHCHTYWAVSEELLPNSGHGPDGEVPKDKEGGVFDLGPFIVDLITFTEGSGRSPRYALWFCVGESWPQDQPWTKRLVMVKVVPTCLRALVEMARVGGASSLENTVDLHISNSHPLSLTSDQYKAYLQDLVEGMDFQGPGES
| Oligonucleotide | fitted relative affinity |
| --- | --- |
| TTAGATCTCAGTATCGATTAGTGCTAG | 1.05 z-score |
| TTAGGAATCGGACTGGGTTAGTGCTAG | -0.332 z-score |
| TTAGGACTGGGGACTTGGTTAGTGCTA | -1.22 z-score |
| TTCTGAATGCCCTTCCATCACGTGCTA | 0.316 z-score |
| TTAGATCGCAGACTGGATTAGTGCTAG | -0.345 z-score |
| TTAGGTTTCGGTCTCGATTAGTGCTAG | 8.39 z-score |
| TTAGGTTTCCGGTTTCGGTTAGTGCTA | 6.45 z-score |
| TCAGTAATGCTTCTGTAACTGTGCTAG | -0.293 z-score |
| GTAAAATTATTCTGTATATTGTGCTAG | 0.164 z-score |
| CTTAGCATGGGGAGGGAGCAGTGCTAG | -0.131 z-score |
| TTAGATTTCTGGACTGGATTAGTGCTA | 0.125 z-score |
| TTGGATTTCGGGACTGGATTAGTGCTA | 0.719 z-score |
| TCAGGACTGGACTTTCGGTTAGTGCTA | 1.26 z-score |
| TTAGGTATCGGGTTTGGGTTAGTGCTA | 1.82 z-score |
| TTAGATTTCGGTACTGGATTAGTGCTA | 3.98 z-score |
| CACTCTCTGGGCTGTGGGTTTGTGCTA | 1.23 z-score |
| GACAGTATCGGTATCGGGACGTGCTAG | 4.86 z-score |
| GACGAACTGTGTATCGAGACGTGCTAG | 0.127 z-score |
| TGAGGTCTCCTACTGCTTTAGTGCTAG | -0.00629 z-score |
| TTAGGACTGAGGACTGGGTTAGTGCTA | -1.01 z-score |

Study 2 — technique: protein binding microarray; form: double-stranded DNA, one strand shown; medium: in vitro; tested at: not given; relative to: not given; direction: higher = stronger binding
Target: Histone acetyltransferase KAT6A, winged helix 2, GST fusion (KAT6A, Homo sapiens, UniProt Q92794, residues 85-181)
Setting: 8-mer, flanks averaged, mean of 2 arrays, mostly near background
Target sequence (chain): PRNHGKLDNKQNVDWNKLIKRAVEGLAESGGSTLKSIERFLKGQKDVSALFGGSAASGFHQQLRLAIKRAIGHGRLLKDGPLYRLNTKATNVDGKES
| Oligonucleotide | E-score |
| --- | --- |
| AATGGTCA | -0.0107 |
| GAATTCCA | 0.0682 |
| GCGTTTCC | -0.142 |
| GTTCCTCA | 0.0655 |
| GGAGTCGA | -0.107 |
| TGGTACAA | -0.156 |
| GGGCTTAA | 0.0468 |
| ACGGGGGG | -0.0597 |
| AATACGGC | 0.106 |
| AGAGGCTC | -0.0293 |
| AATGGAGC | 0.0527 |
| ATGGGCTC | -0.0936 |
| CGTAGCGC | -0.0596 |
| AGATTCTG | 0.0551 |
| AGCTGCCG | 0.195 |
| AATGACTC | -0.0946 |
| TCAAAACA | 0.151 |
| CCCCATCG | 0.0407 |
| ATGTTGGC | -0.0793 |
| AGGTCCCC | 0.101 |
| CCAAAGTC | -0.0134 |
| AGGGTTTC | -0.0131 |
| ACAATTAG | -0.0189 |
| AACACCTC | -0.22 |
| AACGCGAG | -0.0411 |

Study 3 — technique: DHFR PCA, deep sequencing; medium: yeast; added: (+)-ABA 0.39 µM; relative to: wild-type fitted maximum; direction: higher = stronger binding
Target: ABI1, truncated, D143A, DHFR fusion (Arabidopsis thaliana)
Setting: methotrexate growth selection, single substitutions
Starting sequence: PYL1, truncated, DHFR fusion (Arabidopsis thaliana); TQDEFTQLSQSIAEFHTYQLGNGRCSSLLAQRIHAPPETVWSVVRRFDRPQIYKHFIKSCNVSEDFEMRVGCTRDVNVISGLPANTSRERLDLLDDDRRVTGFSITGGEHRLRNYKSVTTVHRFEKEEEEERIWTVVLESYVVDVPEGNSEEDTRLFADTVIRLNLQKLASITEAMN
| Variant | relative binding score [%] |
| --- | --- |
| D48S | -5.54 |
| R74Q | -4.13 |
| N85S | 72.1 |
| E127L | 45.8 |
| I52V | 62.9 |
| R155A | -1.08 |
| Y115H | 9.53 |
| P146M | 21.9 |
| E125L | 31.8 |
| E152Q | 32.7 |
| I172V | 59.1 |
| V70A | 15.5 |
| R155F | -22 |
| N77T | 76 |
| E128T | 48.2 |
| V100H | -11.9 |
| W41R | 6.22 |
| K58F | -9.03 |
| H16S | 3.22 |
| Q7W | 46.2 |
| L138S | 0.923 |
| K54H | -10.5 |
| E147D | 55.3 |
| S63L | 8.13 |
| N149W | 7.85 |

Study 4 — target: CCNE2, cyclin fold, Cln2 fusion (human); technique: yeast growth competition, sequencing; medium: yeast; setting: weak parent motif; relative to: not given; direction: higher = stronger binding
Starting sequence: CUX1 docking peptide (human); SRIRRELFIEEIQ; partner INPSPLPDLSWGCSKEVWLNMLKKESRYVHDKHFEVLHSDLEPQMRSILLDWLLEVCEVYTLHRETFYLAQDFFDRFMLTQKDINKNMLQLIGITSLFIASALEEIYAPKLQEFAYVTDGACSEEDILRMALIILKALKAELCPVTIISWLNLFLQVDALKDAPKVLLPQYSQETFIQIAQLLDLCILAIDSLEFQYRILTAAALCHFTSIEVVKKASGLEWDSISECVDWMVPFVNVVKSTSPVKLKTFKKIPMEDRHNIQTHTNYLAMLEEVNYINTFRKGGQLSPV
| Variant | normalised enrichment score |
| --- | --- |
| L7A | 0.189 |
| R5K F8L | 0.523 |
| Q13A | -0.0479 |
| R5A L7A | -0.374 |
| R4A | 0.134 |
| E11A | 0.887 |
| E10A | 0.603 |
| I9A | -0.183 |
| F8A | 0.53 |
| R5K | 0.783 |

Study 5 — technique: protein-binding microarray; form: double-stranded DNA, one strand shown; medium: in vitro; tested at: 0.8 µM; setting: whole 60-bp probe, no competitor; direction: higher = stronger binding; shared flanks, not repeated: … GTCTTGATTCGCTTGACGCTGCTG
Target: Centromere-binding protein 1, full length, N-terminal tag (CBF1, Saccharomyces cerevisiae, UniProt P17106, residues 1-351)
Chain of UniProt P17106 (whole entry, looked up): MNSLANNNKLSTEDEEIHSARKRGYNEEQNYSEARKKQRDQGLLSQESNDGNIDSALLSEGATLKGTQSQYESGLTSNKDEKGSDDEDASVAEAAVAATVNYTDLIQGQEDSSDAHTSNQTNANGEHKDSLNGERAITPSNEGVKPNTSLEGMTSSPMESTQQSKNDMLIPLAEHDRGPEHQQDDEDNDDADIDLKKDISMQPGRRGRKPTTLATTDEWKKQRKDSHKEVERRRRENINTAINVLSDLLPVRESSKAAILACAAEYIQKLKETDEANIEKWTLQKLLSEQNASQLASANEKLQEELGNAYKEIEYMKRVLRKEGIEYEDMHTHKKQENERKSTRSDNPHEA
| Oligonucleotide | fluorescence intensity |
| --- | --- |
| GAAAAAAAAACCAGCCATCACCGAGATTGTGCTTAG | 486 a.u. |
| CCTAACTACTATAGTAGATCACAATAGCTTCGTACA | 551 a.u. |
| GAAACGCGCAACCATCATCAGAAATAAAATAAATAG | 578 a.u. |
| GAATGTATTATTGGTGGTGTCAGTAGGGGAAGATAG | 579 a.u. |
| CTAAGAAATGCCCATCATCAGAGCCACGCAACATTC | 536 a.u. |
| GAAAGATGAAAAAGAAACGTGGTGGTACTTCGCTAG | 589 a.u. |
| TGTACGAAGCTATAACTTAATCATATAGTAGTTAGG | 501 a.u. |
| CTAGCCGTGTTTAGTCAGGAGGGTGCACGTTGATTC | 631 a.u. |
| GAACCCGGGACGCGTCATGCGCGTTCCAGAAAGTAG | 539 a.u. |
| CTACGTTATTTTATTCAGTTGATCATTTCTTGTTTC | 491 a.u. |
| GAAGTCATTGATAACAGCGTGACTCTTCCCGGATAG | 957 a.u. |
| GAATTTTTTTTTGAAAACATGATGATATACTAATAG | 587 a.u. |
| GAACTTAATAAAACTCATGTGAACCGTATGAAATAG | 680 a.u. |
| GAAAATGAGGCTTTGCTGGTGACAATTCAGAAATAG | 557 a.u. |
| CTAAAAGAAAAATTAAACGTGATCGGTCTATCGTTC | 1620 a.u. |
| GAAATGATGAATGTGCACATGCTGTCGAAACCATAG | 883 a.u. |
| CTACTAAAGAACGTGCATCAGAGAAGAATGACTTTC | 1030 a.u. |
| CTACCGTATTATTAACGTGACACTCAGTATTCTTTC | 1050 a.u. |
| GAAAAGCCTGTCTGCGACGTGCTCCGTCCTATTTAG | 493 a.u. |

Repeated from above (study 1):
| Oligonucleotide | fitted relative affinity |
| --- | --- |
| TTAGATCGCAGACTGGATTAGTGCTAG | -0.345 z-score |
| TTAGGTTTCCGGTTTCGGTTAGTGCTA | 6.45 z-score |
| TTAGGACTGGGGACTTGGTTAGTGCTA | -1.22 z-score |
| TCAGTAATGCTTCTGTAACTGTGCTAG | -0.293 z-score |
| TTAGATTTCGGTACTGGATTAGTGCTA | 3.98 z-score |
